{"data": "Experimental data pooled from the literature", "SCN9A": "Sodium channel protein type 9 subunit alpha (SCN9A, Homo sapiens, UniProt Q15858)", "MAL12": "Alpha-glucosidase MAL12 (MAL12, Saccharomyces cerevisiae S288c, UniProt P53341)", "WWOX WW1 domain": "WW domain-containing oxidoreductase, WW1 domain (WWOX, Homo sapiens, UniProt Q9NZC7)", "B1": "disulfide; chain GLIHQYCQGYWRHVPPSPREAPGAPRSPEPDQKKPRNRRHHPPDT (disulfide (positions not given here))", "note": "Lines come from different studies, so protocols differ. ± gives the spread as reported. Where no end group is shown, it is not given here.", "UniProt P53341, sequence (whole entry, looked up)": "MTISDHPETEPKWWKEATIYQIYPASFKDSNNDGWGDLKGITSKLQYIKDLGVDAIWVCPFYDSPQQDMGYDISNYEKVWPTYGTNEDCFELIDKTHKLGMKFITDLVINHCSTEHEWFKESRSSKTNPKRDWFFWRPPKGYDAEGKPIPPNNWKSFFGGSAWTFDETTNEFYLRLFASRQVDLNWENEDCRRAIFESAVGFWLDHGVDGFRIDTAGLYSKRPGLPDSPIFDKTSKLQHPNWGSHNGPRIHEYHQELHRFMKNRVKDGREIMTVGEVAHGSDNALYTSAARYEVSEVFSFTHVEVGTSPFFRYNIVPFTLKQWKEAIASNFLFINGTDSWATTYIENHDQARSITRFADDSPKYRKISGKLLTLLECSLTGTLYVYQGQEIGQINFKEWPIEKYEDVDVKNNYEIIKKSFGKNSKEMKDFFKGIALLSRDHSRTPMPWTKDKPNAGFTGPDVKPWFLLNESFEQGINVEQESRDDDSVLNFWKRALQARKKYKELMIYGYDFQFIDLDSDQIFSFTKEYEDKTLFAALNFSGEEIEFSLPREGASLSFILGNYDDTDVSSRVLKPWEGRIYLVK", "UniProt Q15858, sequence (whole entry, looked up)": "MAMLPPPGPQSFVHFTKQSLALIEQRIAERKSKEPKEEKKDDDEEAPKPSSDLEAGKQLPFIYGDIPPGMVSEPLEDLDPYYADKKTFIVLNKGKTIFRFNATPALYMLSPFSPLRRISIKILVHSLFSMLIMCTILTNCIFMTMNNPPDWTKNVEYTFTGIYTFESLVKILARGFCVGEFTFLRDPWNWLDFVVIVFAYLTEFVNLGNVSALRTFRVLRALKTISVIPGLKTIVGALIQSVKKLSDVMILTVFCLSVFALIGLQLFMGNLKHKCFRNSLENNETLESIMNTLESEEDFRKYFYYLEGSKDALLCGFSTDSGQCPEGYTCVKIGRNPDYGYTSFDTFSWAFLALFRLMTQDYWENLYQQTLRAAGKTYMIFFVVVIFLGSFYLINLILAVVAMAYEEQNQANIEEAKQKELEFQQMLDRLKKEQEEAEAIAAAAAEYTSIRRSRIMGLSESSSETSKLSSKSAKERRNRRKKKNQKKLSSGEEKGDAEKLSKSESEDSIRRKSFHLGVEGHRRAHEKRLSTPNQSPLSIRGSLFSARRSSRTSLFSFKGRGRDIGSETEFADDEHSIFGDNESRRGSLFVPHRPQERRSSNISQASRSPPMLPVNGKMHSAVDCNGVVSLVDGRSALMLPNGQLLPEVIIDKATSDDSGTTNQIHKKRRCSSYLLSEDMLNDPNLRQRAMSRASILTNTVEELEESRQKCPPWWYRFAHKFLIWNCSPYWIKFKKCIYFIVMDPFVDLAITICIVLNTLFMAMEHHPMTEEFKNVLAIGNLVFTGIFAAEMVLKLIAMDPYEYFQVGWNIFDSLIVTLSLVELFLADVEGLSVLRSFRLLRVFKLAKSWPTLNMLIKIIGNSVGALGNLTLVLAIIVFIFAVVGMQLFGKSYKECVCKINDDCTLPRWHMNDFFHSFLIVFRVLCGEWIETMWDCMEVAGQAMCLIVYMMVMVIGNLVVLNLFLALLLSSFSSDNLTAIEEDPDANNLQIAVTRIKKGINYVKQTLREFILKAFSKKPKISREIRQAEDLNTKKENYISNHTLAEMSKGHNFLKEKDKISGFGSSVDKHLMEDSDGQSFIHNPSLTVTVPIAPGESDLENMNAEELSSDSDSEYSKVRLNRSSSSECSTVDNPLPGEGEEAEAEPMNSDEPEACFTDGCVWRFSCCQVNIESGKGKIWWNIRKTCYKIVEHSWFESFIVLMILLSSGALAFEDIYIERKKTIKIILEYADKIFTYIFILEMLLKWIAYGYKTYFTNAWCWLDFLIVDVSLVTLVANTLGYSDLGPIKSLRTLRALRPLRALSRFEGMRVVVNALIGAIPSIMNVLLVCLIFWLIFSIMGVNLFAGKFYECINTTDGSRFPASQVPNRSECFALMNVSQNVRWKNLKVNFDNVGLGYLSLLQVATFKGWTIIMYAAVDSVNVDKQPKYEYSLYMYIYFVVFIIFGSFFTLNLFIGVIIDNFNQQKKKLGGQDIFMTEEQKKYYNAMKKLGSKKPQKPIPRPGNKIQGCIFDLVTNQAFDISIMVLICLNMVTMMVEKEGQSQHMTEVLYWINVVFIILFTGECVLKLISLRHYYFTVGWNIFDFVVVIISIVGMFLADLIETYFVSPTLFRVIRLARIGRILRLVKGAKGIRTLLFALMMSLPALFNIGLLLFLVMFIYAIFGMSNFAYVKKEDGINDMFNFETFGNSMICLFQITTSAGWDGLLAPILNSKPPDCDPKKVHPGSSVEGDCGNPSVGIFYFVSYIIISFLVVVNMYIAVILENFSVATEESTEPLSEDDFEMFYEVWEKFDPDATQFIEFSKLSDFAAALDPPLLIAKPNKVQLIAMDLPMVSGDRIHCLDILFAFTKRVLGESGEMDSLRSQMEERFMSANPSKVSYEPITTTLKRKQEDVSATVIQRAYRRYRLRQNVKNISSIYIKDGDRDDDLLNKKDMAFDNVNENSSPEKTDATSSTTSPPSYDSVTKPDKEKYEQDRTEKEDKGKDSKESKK", "UniProt Q9NZC7, sequence (whole entry, looked up)": "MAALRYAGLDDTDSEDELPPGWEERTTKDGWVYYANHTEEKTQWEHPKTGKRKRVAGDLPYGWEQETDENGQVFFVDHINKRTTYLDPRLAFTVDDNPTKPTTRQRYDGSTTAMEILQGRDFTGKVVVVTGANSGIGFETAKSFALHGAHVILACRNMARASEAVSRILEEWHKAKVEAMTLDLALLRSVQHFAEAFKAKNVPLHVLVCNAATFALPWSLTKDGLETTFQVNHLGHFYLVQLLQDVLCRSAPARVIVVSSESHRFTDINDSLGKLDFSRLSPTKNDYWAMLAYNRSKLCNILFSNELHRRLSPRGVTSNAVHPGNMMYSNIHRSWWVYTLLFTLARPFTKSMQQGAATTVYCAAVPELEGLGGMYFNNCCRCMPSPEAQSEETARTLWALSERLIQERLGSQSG", "UniProt P69905, sequence (whole entry, looked up)": "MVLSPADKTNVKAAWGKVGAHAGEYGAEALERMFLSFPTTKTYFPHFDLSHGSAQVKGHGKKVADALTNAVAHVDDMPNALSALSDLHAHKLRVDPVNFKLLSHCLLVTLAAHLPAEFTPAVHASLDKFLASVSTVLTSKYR", "UniProt P0DMV8, sequence (whole entry, looked up)": "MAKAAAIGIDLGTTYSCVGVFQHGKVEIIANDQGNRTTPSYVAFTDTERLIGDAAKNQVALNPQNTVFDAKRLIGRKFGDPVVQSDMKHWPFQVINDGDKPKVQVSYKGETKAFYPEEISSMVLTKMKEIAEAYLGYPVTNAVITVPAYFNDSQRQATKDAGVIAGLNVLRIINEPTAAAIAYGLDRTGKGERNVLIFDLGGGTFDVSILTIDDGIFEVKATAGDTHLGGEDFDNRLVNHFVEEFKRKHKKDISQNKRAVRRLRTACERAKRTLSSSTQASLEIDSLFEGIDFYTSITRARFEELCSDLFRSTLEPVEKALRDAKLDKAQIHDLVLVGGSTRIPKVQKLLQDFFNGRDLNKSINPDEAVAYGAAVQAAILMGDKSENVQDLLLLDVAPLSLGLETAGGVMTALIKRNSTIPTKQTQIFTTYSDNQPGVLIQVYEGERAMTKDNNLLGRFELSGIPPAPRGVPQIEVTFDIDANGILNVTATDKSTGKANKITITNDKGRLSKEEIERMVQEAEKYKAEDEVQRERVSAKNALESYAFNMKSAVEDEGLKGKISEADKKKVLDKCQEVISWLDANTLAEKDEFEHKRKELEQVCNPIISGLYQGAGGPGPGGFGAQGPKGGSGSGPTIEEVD", "UniProt P07947, sequence (whole entry, looked up)": "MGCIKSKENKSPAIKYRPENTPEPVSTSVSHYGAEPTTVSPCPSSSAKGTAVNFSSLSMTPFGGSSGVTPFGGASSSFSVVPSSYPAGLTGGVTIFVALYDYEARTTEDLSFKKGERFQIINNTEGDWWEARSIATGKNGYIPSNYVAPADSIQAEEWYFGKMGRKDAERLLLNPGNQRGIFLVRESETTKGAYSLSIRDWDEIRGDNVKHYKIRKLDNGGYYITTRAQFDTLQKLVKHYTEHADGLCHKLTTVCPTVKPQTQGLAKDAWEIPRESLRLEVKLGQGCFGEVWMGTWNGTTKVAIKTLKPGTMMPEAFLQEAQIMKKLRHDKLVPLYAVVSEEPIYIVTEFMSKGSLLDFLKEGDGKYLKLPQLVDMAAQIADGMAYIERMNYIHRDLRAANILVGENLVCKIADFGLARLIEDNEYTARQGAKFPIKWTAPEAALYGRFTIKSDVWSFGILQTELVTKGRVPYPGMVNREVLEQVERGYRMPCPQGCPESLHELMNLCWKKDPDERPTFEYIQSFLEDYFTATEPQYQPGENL", "UniProt Q02083, sequence (whole entry, looked up)": "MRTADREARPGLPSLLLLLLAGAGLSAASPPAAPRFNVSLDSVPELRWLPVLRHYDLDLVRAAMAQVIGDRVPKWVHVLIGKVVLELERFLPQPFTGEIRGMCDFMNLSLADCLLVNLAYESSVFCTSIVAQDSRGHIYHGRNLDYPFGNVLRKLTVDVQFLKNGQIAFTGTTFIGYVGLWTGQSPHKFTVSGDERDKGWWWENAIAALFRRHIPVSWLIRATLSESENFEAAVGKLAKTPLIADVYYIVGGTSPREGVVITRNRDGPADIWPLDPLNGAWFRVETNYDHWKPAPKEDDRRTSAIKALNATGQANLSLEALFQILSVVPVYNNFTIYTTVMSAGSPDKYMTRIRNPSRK", "UniProt P52564, sequence (whole entry, unmodified, looked up)": "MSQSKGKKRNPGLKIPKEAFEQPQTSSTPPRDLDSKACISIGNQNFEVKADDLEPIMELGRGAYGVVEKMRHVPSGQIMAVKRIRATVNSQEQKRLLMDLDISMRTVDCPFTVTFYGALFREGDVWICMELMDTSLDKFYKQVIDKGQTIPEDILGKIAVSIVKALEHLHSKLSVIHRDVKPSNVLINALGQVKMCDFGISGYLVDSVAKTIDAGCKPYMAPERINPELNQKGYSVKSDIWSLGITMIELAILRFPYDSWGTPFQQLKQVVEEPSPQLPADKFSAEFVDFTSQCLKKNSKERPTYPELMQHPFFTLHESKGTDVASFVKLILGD"}
{"Molecule": "CCCCN1CCN(C(C)C(=O)Nc2c(C)csc2C(=O)OC)CC1 (stereo not shown)", "target": "SCN9A", "test": "cell membrane chromatography", "scale": "higher = stronger binding", "measurement": "capacity factor k′", "result": 163}
{"Molecule": "CC1=C(C(=O)OCc2ccccc2)C(c2ccc(-c3ccccc3)cc2)NC(=O)N1CCCCCc1nnn[nH]1 (stereo not shown)", "target": "HSPA1A (Homo sapiens, UniProt P0DMV8)", "test": "ATPase activity, inhibitor", "setting": "100 µM, without Hsp40", "scale": "baseline: DMSO, negative means inhibition", "measurement": "fold change in activity", "result": "-1.2 fold"}
{"Molecule": "B1", "target": "Neuropilin-2 (NRP2, Homo sapiens, UniProt O60462)", "test": "sedimentation velocity AUC", "setting": "2.5-fold molar excess, 8 µM b1b2 domain", "measurement": "apparent molecular mass, dimer peak", "result": "80.2 ± 3 kDa"}
{"Molecule": "COc1cc2c(cc1OC)-c1c/c(=N\\c3c(C)cc(C)cc3C)n(C)c(=O)n1CC2", "target": "PDE1C (Homo sapiens, UniProt Q14123)", "test": "cGMP hydrolysis, inhibitor", "setting": "up to 50 µM", "measurement": "IC50", "result": "inactive"}
{"Molecule": "O=Cc1ccc(COc2ccc(Cl)cc2)o1", "target": "Hemoglobin subunit alpha, with sickle beta chain (HBA1, Homo sapiens, UniProt P69905)", "test": "oxygen affinity", "system": "sickle red cell lysate", "setting": "2000 µM", "scale": "baseline: untreated", "measurement": "P50 change", "result": "13.2 ± 5.2%"}
{"Molecule": "Ac-RRWRDGIKIYNLLF-NH2 (N-acetyl, C-amide)", "target": "MAP2K6 (Homo sapiens, UniProt P52564, S207E/T211E)", "test": "substrate, HPLC and MALDI-TOF MS", "system": "peptide", "setting": "100 to 500 µM, 40 h, pH 7.5, room temperature, with: ATP 1 mM", "measurement": "phosphorylation", "result": "not detected"}
{"Molecule": "COc1ccc2c(=O)c(OC)c(-c3ccccc3)oc2c1", "target": "MAL12", "test": "enzyme activity, inhibitor", "setting": "10 µM, with: p-nitrophenyl α-D-glucopyranoside", "measurement": "inhibition", "result": "< 1%"}
{"Molecule": "COc1cc2oc(-c3ccc(O)cc3O)c(CC=C(C)C)c(=O)c2c(O)c1/C=C/C(C)C", "target": "Sialidase A (nanA, Streptococcus pneumoniae, UniProt P62575)", "test": "neuraminidase activity, fluorescence", "scale": "baseline: cpd over oseltamivir", "measurement": "IC50 ratio", "result": "~10 fold"}
{"Molecule": "CQQEPDDLKQKACES", "target": "human IgE", "test": "peptide microarray", "system": "peptide, peanut/walnut-allergic patient sera", "setting": "concentration not given, 16 h, 4 °C", "measurement": "patients with IgE binding", "result": "19%"}
{"Molecule": "O=C(CCc1ccccc1)N[C@H]1CNC1=O", "target": "NAAA (Homo sapiens, UniProt Q02083)", "test": "enzyme activity, inhibitor, fluorogenic PAMCA hydrolysis", "setting": "pH 4.5, with: 5 µM PAMCA", "measurement": "IC50", "result": "inactive"}
{"Molecule": "O=[N+]([O-])c1ccc(OP(=O)(O)O)cc1", "target": "Receptor-type tyrosine-protein phosphatase alpha, residues 224–802 (Homo sapiens, UniProt P18433)", "test": "substrate", "setting": "pH 7.4", "measurement": "kcat", "result": "0.54 ± 0.28 s⁻¹"}
{"Molecule": "O=Cc1ccc(COc2ccccc2[N+](=O)[O-])o1", "target": "Hemoglobin subunit alpha, with beta chain (HBA1, Homo sapiens, UniProt P69905)", "test": "measured: haemoglobin A adduct", "system": "human normal whole blood", "setting": "2000 µM, 24 h, hematocrit 30%", "measurement": "peak modification", "result": "24.7%"}
{"Molecule": "CC(C)C[C@H](NC(=O)[C@@H](NC(=O)[C@@H](N)[C@@H](C)O)C(C)C)C(=O)N1CCC[C@H]1C(=O)N1CCC[C@H]1C(=O)N1CCC[C@H]1C(=O)N1CCC[C@H]1C(=O)N[C@@H](Cc1ccc(O)cc1)C(=O)N[C@@H](CCCNC(=N)N)C(=O)N[C@@H](Cc1c[nH]cn1)C(=O)N[C@@H](CCCNC(=N)N)C(=O)N[C@@H](CC(N)=O)C(=O)O", "target": "WWOX WW1 domain", "test": "binding, ITC", "setting": "pH 7.0, 25 °C", "measurement": "ΔG", "result": "-5.25 ± 0.06 kcal/mol"}
{"Molecule": "N[C@@H](CCC(=O)Nc1ccc(-c2ccc(F)cc2)cc1)C(=O)O", "target": "SLC1A5 (Homo sapiens, UniProt Q15758)", "system": "PC-3", "setting": "concentration not given, 5 min, 37 °C, with: [3H]-L-serine 150 µM", "scale": "baseline: basal uptake", "measurement": "[3H]-L-serine uptake", "result": "95 ± 2%"}
{"Molecule": "COC(=O)c1scc(C)c1NC(=O)C(C)N1CC(C)CC(C)C1 (stereo not shown)", "target": "SCN9A", "test": "cell membrane chromatography", "scale": "higher = stronger binding", "measurement": "capacity factor k′", "result": 77}
{"Molecule": "CC(=O)N[C@@H](Cc1cccnc1)C(=O)N[C@H](Cc1ccccc1)C(=O)N[C@@H](CCCNC(=N)N)C(=O)N[C@@H](Cc1ccc2ccccc2c1)C(N)=O", "target": "Melanocortin receptor 3 (Mus musculus, UniProt P33033)", "test": "receptor activity, agonist, cell-based", "setting": "up to 100 µM, Schild antagonism analysis", "measurement": "agonist and antagonist activity", "result": "inactive"}
{"Molecule": "LFPVIYTQM", "target": "H-2 class I histocompatibility antigen, K-B alpha chain, 26 (H2-K1, Mus musculus, UniProt P01901)", "test": "H2-K binding, flow cytometry", "system": "peptide, RMA-S", "setting": "10 µg per 100 µL, 3 h", "measurement": "MFI increase", "result": "128%"}
{"Molecule": "farnesene", "target": "chemosensory protein 3 (Chilo suppressalis, UniProt V9PY40)", "test": "ligand, competitive fluorescence binding", "setting": "concentration not given, pH 7.4, highest concentration tested, with: 2 µM fluorescent probe", "measurement": "fluorescence intensity of probe", "result": "88.9 ± 2.75%"}
{"Molecule": "CC(C)C[C@H](NC(=O)[C@@H](NC(=O)[C@@H](N)[C@@H](C)O)C(C)C)C(=O)N1CCC[C@H]1C(=O)N1CCC[C@H]1C(=O)N1CCC[C@H]1C(=O)N1CCC[C@H]1C(=O)N[C@@H](Cc1ccc(O)cc1)C(=O)N[C@@H](CCCNC(=N)N)C(=O)N[C@@H](Cc1c[nH]cn1)C(=O)N[C@@H](C)C(=O)N[C@@H](CC(N)=O)C(=O)O", "target": "WWOX WW1 domain", "test": "binding to WW1 domain, isothermal titration calorimetry", "setting": "pH 7.0, 25 °C", "measurement": "binding free energy ΔG", "result": "-5.29 ± 0.13 kcal/mol"}
{"Molecule": "CC/C=C/[C@H](CC)C/C(=C/[C@@]1(CC)C[C@H](CC)[C@H](CC(=O)O)OO1)CC", "target": "NPY1R (Homo sapiens, UniProt P25929)", "test": "ligand displacement, radioligand", "setting": "10 µg/mL, 30 min", "measurement": "remaining binding", "result": "100%"}
{"Molecule": "CC1=C(C(=O)OCc2ccccc2)C(c2ccc(-c3ccccc3)cc2)N(Cc2ccc(-c3nnn[nH]3)cc2)C(=O)N1 (stereo not shown)", "target": "Heat shock 70 kDa protein 1A, with Hdj2 (HSPA1A, Homo sapiens, UniProt P0DMV8)", "test": "ATPase activity, inhibitor", "setting": "100 µM, Hsp40-stimulated activity, with: Hdj2 Hsp70:Hsp40 1:0.5", "scale": "baseline: DMSO, negative means inhibition", "measurement": "fold change in activity", "result": "-5 fold"}
{"Molecule": "H-MIETITIYKYKKAADHFSMSMGSGSGSYPYDVPDYA-NH2 (C-amide)", "target": "BCL2L1 (Homo sapiens, UniProt Q07817)", "test": "binding, radioligand binding", "setting": "1 h, room temperature, immobilized Bcl-xL 100 pmol", "measurement": "bound fraction", "result": "~80%"}
{"Molecule": "CC(C)C[C@H](NP(=O)(O)O[C@@H]1O[C@@H](C)[C@H](O)[C@@H](O)[C@H]1O)C(=O)N[C@@H](Cc1c[nH]c2ccccc12)C(=O)O", "target": "Membrane metallo-endopeptidase-like 1, extracellular domain (Homo sapiens, UniProt Q495T6)", "test": "inhibitor, measured: proBNP immunoreactivity", "setting": "50 µM, 2 and 6 h, with: proBNP 1.45 µM", "measurement": "NEP2 activity", "result": "inhibited"}
{"Molecule": "O=C(O)c1ccc2ccccc2n1", "target": "PY04617 (Plasmodium yoelii, UniProt Q7RFT5)", "test": "ultrafiltration HPLC-UV", "setting": "0.1 mM, pH 7.25, 4 °C, 6.5% DMSO, with: methionine competitor", "measurement": "UV signal reduction", "result": "50.2 ± 0.8%"}
{"Molecule": "RCTKLEYDPRCVYDP", "target": "human IgE", "test": "peptide microarray", "system": "peptide, peanut-allergic patient sera", "setting": "concentration not given, 16 h, 4 °C", "measurement": "patients with IgE binding", "result": "92%"}
{"Molecule": "O=c1cc(-c2ccccc2)oc2cc(O)ccc12", "target": "MAL12", "test": "enzyme activity, inhibitor, absorbance", "setting": "250 µM", "measurement": "inhibition", "result": "37.1%"}
{"Molecule": "C=CC(=O)Nc1ccccc1Nc1nc(Nc2ccc(N3CCN(C)CC3)cc2)ncc1Cl", "target": "YES1 (Homo sapiens, UniProt P07947)", "test": "probe binding, inhibitor, chemoproteomic competition", "system": "NCI-H23 KRAS G12C", "setting": "10 nM, 2 h, with: 2 µM desthiobiotin probe", "measurement": "labelling", "result": "> 50%"}
{"Molecule": "COc1cc2oc(-c3ccccc3)cc(=O)c2c(OC)c1O", "target": "MAL12", "test": "enzyme activity, inhibitor, absorbance", "setting": "25 µM", "measurement": "inhibition", "result": "7.09%"}
{"Molecule": "CCCNC(C)C(=O)Nc1c(C)csc1C(=O)OCCC (stereo not shown)", "target": "SCN9A", "test": "cell membrane chromatography", "scale": "higher = stronger binding", "measurement": "capacity factor k′", "result": 81.4}
{"Molecule": "CC(C)[C@H](NC(=O)[C@@H](N)[C@@H](C)O)C(=O)N[C@@H](C)C(=O)N1CCC[C@H]1C(=O)N1CCC[C@H]1C(=O)N1CCC[C@H]1C(=O)N1CCC[C@H]1C(=O)N[C@@H](Cc1ccc(O)cc1)C(=O)N[C@@H](CCCNC(=N)N)C(=O)N[C@@H](Cc1c[nH]cn1)C(=O)N[C@@H](CCCNC(=N)N)C(=O)N[C@@H](CC(N)=O)C(=O)O", "target": "WWOX WW1 domain", "test": "binding to WW1 domain, isothermal titration calorimetry", "setting": "pH 7.0, 25 °C", "measurement": "binding free energy ΔG", "result": "-5.22 ± 0.07 kcal/mol"}
{"Molecule": "CC[C@]1(O)C[C@H]2CN(CCc3c([nH]c4ccccc34)[C@@](C(=O)OC)(c3cc4c(cc3OC)N(C=O)[C@H]3[C@@](O)(C(=O)OC)[C@H](OC(C)=O)[C@]5(CC)C=CCN6CC[C@]43[C@@H]65)C2)C1", "target": "SLC22A5 (Homo sapiens, UniProt O76082)", "test": "transporter uptake, inhibitor", "setting": "200 µM", "measurement": "inhibition", "result": "87.2%"}
{"note": "Some of these lines once more:"}
{"Molecule": "Ac-RRWRDGIKIYNLLF-NH2 (N-acetyl, C-amide)", "target": "MAP2K6 (Homo sapiens, UniProt P52564, S207E/T211E)", "test": "substrate, HPLC and MALDI-TOF MS", "system": "peptide", "setting": "100 to 500 µM, 40 h, pH 7.5, room temperature, with: ATP 1 mM", "measurement": "phosphorylation", "result": "not detected"}
{"Molecule": "COc1ccc2c(=O)c(OC)c(-c3ccccc3)oc2c1", "target": "MAL12", "test": "enzyme activity, inhibitor", "setting": "10 µM, with: p-nitrophenyl α-D-glucopyranoside", "measurement": "inhibition", "result": "< 1%"}
